Measurements pooled from the literature.
Each numbered part is a random draw from the data of one study; scales do not carry over between parts. Positions count from the first letter of the parent shown.
Sequence of UniProt Q9HC98 (whole entry, looked up): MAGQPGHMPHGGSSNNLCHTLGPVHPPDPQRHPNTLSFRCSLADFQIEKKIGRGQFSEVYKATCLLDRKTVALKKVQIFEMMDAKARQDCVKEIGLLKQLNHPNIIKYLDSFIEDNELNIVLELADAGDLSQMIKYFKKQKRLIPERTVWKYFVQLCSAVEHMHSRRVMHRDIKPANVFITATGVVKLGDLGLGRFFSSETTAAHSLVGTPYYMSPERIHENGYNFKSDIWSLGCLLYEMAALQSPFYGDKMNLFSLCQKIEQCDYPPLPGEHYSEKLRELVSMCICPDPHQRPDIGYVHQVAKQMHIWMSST
Sequence of UniProt Q96PY6 (whole entry, looked up): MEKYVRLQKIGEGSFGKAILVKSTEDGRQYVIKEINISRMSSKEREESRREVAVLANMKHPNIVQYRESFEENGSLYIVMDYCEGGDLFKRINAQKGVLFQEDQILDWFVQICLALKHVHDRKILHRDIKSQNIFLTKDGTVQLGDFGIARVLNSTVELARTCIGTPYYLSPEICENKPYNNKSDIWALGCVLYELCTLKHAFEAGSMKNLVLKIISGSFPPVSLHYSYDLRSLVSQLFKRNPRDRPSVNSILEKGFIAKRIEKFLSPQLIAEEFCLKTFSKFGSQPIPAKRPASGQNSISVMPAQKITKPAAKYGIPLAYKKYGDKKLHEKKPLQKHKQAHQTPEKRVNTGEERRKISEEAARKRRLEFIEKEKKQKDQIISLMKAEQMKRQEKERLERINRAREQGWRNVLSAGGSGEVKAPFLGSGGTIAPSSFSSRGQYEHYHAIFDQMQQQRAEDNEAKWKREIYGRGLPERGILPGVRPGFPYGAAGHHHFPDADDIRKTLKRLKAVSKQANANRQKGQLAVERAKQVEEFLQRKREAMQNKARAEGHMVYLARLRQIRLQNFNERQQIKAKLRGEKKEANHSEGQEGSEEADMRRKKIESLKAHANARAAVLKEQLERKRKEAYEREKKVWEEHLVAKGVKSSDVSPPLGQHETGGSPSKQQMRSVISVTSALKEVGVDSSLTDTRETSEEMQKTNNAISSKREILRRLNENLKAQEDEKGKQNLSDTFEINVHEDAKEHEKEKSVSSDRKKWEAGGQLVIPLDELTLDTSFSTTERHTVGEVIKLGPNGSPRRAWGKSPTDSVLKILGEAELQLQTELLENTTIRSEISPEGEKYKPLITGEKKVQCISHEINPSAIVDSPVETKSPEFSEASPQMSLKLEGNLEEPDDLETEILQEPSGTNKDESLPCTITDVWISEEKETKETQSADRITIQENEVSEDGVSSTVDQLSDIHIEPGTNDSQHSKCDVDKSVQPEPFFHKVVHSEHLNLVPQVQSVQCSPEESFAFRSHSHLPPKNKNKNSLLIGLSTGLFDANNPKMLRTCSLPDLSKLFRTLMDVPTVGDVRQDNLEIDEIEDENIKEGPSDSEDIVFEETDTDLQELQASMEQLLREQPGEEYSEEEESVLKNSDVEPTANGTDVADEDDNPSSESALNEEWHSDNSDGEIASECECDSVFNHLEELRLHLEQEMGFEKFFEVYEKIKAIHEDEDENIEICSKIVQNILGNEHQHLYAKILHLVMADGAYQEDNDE
Sequence of UniProt Q04912 (whole entry, looked up): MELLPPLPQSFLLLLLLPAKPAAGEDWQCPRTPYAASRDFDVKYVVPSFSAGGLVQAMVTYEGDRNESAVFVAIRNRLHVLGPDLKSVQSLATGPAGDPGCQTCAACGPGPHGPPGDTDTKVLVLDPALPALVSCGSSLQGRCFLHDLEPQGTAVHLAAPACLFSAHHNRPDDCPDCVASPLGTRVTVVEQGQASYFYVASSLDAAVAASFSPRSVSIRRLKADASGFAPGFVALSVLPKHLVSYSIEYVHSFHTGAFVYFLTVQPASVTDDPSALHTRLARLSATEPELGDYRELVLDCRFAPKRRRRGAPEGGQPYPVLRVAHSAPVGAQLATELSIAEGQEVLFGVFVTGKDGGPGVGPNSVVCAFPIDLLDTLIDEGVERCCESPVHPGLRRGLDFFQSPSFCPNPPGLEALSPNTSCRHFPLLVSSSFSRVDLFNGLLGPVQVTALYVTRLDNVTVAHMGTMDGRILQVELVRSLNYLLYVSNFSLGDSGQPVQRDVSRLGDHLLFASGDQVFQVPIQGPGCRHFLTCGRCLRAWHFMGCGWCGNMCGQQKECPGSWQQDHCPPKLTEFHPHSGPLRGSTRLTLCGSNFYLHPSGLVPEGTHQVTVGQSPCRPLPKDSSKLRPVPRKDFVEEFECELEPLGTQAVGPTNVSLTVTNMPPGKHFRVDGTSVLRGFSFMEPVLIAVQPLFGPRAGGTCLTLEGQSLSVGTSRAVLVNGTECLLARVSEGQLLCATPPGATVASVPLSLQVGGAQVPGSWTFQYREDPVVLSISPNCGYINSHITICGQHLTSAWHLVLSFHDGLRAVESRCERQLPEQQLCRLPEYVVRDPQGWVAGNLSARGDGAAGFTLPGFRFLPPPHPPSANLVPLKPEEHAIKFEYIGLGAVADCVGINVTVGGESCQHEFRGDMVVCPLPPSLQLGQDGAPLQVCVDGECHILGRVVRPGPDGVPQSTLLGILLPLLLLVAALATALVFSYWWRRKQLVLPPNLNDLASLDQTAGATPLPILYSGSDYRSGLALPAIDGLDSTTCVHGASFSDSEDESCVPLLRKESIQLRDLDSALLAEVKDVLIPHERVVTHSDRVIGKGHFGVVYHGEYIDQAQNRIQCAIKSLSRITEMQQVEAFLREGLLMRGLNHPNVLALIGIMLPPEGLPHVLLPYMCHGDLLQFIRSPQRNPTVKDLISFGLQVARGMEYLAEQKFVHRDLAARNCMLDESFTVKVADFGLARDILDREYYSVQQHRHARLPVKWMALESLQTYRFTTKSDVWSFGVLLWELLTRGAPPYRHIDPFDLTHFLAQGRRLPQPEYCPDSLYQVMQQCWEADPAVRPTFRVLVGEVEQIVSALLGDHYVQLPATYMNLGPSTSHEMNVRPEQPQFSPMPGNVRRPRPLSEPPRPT
Sequence of UniProt Q8WTQ7 (whole entry, looked up): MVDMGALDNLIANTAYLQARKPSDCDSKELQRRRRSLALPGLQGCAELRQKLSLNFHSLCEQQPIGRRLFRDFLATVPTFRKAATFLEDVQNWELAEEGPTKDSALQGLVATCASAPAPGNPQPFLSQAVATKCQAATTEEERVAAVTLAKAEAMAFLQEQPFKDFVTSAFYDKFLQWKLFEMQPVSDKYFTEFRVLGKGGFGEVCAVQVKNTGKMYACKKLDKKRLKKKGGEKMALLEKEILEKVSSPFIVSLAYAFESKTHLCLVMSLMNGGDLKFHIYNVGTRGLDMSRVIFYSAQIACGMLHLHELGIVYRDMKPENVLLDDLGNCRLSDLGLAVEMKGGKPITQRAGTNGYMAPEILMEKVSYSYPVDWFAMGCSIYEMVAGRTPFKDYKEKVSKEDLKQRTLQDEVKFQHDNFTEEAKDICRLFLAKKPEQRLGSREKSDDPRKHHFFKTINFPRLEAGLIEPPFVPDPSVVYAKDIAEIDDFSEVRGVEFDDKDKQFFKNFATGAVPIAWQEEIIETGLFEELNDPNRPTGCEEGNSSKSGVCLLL
Sequence of UniProt Q8IYT8 (whole entry, looked up): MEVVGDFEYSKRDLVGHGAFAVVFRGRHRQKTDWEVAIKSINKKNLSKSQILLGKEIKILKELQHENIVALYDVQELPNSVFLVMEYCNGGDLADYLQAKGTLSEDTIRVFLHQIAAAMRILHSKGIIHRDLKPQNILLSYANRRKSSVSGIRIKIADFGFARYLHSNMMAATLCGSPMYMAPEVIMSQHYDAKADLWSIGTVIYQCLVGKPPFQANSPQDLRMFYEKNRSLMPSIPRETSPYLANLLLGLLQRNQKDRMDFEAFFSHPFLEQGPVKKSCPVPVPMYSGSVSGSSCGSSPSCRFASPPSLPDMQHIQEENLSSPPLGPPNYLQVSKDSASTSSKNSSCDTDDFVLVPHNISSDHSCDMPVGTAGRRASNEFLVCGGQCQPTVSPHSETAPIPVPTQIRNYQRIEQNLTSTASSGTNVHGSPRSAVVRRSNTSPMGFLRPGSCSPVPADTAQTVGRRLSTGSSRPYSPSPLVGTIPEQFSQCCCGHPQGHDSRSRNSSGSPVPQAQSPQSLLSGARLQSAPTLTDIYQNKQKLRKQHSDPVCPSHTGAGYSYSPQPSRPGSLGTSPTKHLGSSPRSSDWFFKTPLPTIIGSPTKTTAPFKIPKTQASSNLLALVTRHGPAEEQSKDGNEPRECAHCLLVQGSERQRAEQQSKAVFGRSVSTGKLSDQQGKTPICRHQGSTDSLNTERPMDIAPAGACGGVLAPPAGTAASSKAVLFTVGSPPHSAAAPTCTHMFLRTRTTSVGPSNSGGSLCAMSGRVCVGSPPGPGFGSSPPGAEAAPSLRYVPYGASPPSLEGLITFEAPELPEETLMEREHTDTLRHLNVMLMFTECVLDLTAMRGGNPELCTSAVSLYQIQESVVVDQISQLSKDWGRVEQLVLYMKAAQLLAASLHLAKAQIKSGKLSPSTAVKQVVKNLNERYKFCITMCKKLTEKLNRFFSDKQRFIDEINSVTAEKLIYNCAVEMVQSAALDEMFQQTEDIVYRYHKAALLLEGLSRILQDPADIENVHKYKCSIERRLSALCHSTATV
Sequence of UniProt Q9Y6M4 (whole entry, looked up): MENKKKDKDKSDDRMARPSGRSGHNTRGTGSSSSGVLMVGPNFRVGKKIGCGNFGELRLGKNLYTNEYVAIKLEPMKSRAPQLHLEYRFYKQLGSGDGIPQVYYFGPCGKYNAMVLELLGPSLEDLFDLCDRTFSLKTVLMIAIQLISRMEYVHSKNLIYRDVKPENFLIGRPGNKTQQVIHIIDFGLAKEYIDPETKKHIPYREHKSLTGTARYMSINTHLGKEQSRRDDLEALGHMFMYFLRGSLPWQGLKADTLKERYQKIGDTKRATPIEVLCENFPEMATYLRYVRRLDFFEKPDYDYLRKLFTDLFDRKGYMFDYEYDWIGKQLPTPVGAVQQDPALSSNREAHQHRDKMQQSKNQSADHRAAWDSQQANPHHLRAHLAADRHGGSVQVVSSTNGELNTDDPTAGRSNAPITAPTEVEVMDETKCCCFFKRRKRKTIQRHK

Set 1 — method: RNA Bind-n-Seq; molecule type: RNA; sample: in vitro; concentration: 365 nM; reference: no-protein control; direction: higher = stronger binding; quantity: RBNS enrichment (R)
Target: RNA binding protein fox-1 homolog 2, RRM domain, GST-SBP tag (RBFOX2, Homo sapiens, UniProt O43251-10, residues 100-194)
Notes: natural RNA segment, single round, ends assumed
All sequences stand within: GGGAGUUCUACAGUCCGACGAUC … UGGAAUUCUCGGGUGCCAA
Construct (chain): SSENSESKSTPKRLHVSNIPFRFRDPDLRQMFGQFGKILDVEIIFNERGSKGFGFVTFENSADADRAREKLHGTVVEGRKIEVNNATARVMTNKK
GUUUCAUAAAUUUUAAAAUAAUUAUUUUUGACUAUGAACAUUAGUCCAAAUUUAAUAUUUGACACAGUUCAUACCAGCUUGCUACAAUAAUGAUAAUUUAUUAGUCUUUC: 4.07
GACCCAUGCUGGUGGAGAACAGACGUCAAUCAUUCCCGUCCAUCAGGUUAUUGAUAAGGUCAAGGGUUACUGUAAUGCCCAUUCCGAUAACUUCUAUAAAAAUAUCAUCC: 0.365
CUGUAAGUUGGUGUUGGUUAUGCAGAAAUGUGUAACAGAUCAAACGGUCCUCUCAAGUGUCUAUUAGAUAGGCAAUAAGAACUGCAGUGUAGCUGAGUAACAUCUUUUAG: 0.239
UCAUGUGACCCCAGCAACUUUGGUGAUACUGAGAGGCCAGCAGGCAGUAGAGUGGACACCUCGGCCGUGGCCACUUUAGAGGGGGAAAAGUUUAAGUUUUAAACUAAAAG: 0.512
CACUUACUAACUGCCAGUUCUCCAGCACUGAGGUGGGGCAGAUAACGGGGCAUAUUUAAGGGGGCAUCUUUGUGUAAAAGAUGCAUGGAGUCAGGAGAAAACCACCUUCA: 0.318
GAAGAUGUCUCAACCCUACAAAGACUAAAGUGCGCCAUCCCAGUGCCACAGAAGGCAGAGGGUAGUUGGUGGCCUUUUCAUCCACUUAACCCUGACACAGGCAGCUGCUG: 0.282
CACUCUUCCUCACGCUGUUGUUACUCAUGCACCAUUCAGACUUGUUAGAGUAGAUGUGGGUUUAGGACUGCCAGGUUUGCCCAGUAUAGUAGUUUUUAUCACUAAAAAGU: 1.07
AUGCCAGGCUGGUGCAGAUGGAGGUCCUCAUGAAUAAGCGCUGUGUUUGAUGGGGUCUGGGACUGCACACUGUCAGUAUAUUAGGCACGUGGGCCAGCUGGGGUGGGUUU: 0.997

Set 2 — effect on: cell-free assay; method: competition with immobilised ligand; concentration: 1 µM; quantity: remaining binding
SMILES: CS(=O)(=O)NCC[C@H](NC(=O)c1cncc2c1cnn2-c1ccc(F)cc1)c1ccnc(S(C)(=O)=O)c1
CDK13 (Homo sapiens, UniProt Q14004): 100%
SIK2 (Homo sapiens, UniProt Q9H0K1): 100%
CSNK2A2 (Homo sapiens, UniProt P19784): 100%
MAP3K6 (Homo sapiens, UniProt O95382): 100%

Set 3 — Compound: O=C1NC(=O)/C(=C/c2ccc3c(c2)OC(F)(F)O3)S1; effect on: enzyme activity; action: inhibitor; concentration: 0.5 µM; reference: control; quantity: remaining activity
MST1R (Homo sapiens, UniProt Q04912): 100%
ULK2 (Homo sapiens, UniProt Q8IYT8): 100%
GRK7 (Homo sapiens, UniProt Q8WTQ7): 102%
MAP2K2 (Homo sapiens, UniProt P36507): 110%
FGFR3 (Homo sapiens, UniProt P22607): 96.4%
ARAF (Homo sapiens, UniProt P10398): 104%
CSNK1G3 (Homo sapiens, UniProt Q9Y6M4): 91.4%
GSK3B (Homo sapiens, UniProt P49841): 92.3%
CSNK1G2 (Homo sapiens, UniProt P78368): 84.5%
JAK3 (Homo sapiens, UniProt P52333): 98.6%
ULK3 (Homo sapiens, UniProt Q6PHR2): 109%
NEK6 (Homo sapiens, UniProt Q9HC98): 113%
RPS6KA2 (Homo sapiens, UniProt Q15349): 97.3%
NEK1 (Homo sapiens, UniProt Q96PY6): 79.6%

Set 4 — target: JDP2, bZIP domain (human); method: DHFR protein complementation; sample: yeast; reference: wild-type JUN-FOS pair; direction: higher = stronger binding; quantity: binding fitness
Notes: single substitutions, most at no-binding floor
Starting sequence: JUN, bZIP domain (human); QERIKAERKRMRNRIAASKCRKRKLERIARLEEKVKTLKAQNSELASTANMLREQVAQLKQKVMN; partner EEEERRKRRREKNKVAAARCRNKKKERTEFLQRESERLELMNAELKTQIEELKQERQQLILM
L38P: -1.08 natural log
A46I: 0.229 natural log
I28S: 0.212 natural log
A29T: 0.22 natural log
R30V: 0.413 natural log
E32M: 0.248 natural log
I28A: 0.269 natural log
E54S: 0.173 natural log

Repeated from above (set 3):
ULK3 (Homo sapiens, UniProt Q6PHR2): 109%
NEK6 (Homo sapiens, UniProt Q9HC98): 113%
NEK1 (Homo sapiens, UniProt Q96PY6): 79.6%
MST1R (Homo sapiens, UniProt Q04912): 100%
RPS6KA2 (Homo sapiens, UniProt Q15349): 97.3%
CSNK1G2 (Homo sapiens, UniProt P78368): 84.5%
